Assay results gathered from unrelated publications.
Protocols differ between the studies behind these lines. Values joined by “and” are separate records of one study, mostly repeats; a detail may differ.
HLA class I histocompatibility antigen, A alpha chain: HLA class I histocompatibility antigen, A alpha chain (Homo sapiens, UniProt P04439)
4'-phosphopantetheinyl transferase PptT: 4'-phosphopantetheinyl transferase PptT (Mycobacterium tuberculosis, UniProt O33336)
Sequence of UniProt O33336 (whole entry, looked up): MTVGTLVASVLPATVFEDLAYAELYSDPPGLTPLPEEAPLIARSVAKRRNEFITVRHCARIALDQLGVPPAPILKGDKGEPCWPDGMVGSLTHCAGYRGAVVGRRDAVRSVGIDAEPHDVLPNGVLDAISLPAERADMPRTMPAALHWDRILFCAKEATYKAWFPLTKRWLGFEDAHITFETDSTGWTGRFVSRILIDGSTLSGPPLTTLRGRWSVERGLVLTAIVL
FABP4: Fatty acid-binding protein, adipocyte (FABP4, Homo sapiens, UniProt P15090)
Sequence of UniProt P15090 (whole entry, looked up): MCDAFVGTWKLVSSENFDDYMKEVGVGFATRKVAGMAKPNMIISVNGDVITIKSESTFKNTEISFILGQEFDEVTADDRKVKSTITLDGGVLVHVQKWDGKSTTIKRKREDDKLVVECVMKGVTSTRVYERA
Sequence of UniProt Q92847 (whole entry, looked up): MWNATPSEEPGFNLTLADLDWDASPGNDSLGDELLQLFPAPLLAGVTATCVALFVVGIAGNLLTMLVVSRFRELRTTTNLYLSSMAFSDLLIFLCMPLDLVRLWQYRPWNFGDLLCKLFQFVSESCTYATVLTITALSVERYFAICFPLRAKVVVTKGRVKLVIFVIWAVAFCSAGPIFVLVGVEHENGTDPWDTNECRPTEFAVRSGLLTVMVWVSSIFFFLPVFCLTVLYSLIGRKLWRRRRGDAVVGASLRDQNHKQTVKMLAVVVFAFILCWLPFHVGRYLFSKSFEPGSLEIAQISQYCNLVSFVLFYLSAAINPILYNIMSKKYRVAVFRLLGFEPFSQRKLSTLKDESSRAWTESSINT
Sequence of UniProt Q9BE39 (whole entry, looked up): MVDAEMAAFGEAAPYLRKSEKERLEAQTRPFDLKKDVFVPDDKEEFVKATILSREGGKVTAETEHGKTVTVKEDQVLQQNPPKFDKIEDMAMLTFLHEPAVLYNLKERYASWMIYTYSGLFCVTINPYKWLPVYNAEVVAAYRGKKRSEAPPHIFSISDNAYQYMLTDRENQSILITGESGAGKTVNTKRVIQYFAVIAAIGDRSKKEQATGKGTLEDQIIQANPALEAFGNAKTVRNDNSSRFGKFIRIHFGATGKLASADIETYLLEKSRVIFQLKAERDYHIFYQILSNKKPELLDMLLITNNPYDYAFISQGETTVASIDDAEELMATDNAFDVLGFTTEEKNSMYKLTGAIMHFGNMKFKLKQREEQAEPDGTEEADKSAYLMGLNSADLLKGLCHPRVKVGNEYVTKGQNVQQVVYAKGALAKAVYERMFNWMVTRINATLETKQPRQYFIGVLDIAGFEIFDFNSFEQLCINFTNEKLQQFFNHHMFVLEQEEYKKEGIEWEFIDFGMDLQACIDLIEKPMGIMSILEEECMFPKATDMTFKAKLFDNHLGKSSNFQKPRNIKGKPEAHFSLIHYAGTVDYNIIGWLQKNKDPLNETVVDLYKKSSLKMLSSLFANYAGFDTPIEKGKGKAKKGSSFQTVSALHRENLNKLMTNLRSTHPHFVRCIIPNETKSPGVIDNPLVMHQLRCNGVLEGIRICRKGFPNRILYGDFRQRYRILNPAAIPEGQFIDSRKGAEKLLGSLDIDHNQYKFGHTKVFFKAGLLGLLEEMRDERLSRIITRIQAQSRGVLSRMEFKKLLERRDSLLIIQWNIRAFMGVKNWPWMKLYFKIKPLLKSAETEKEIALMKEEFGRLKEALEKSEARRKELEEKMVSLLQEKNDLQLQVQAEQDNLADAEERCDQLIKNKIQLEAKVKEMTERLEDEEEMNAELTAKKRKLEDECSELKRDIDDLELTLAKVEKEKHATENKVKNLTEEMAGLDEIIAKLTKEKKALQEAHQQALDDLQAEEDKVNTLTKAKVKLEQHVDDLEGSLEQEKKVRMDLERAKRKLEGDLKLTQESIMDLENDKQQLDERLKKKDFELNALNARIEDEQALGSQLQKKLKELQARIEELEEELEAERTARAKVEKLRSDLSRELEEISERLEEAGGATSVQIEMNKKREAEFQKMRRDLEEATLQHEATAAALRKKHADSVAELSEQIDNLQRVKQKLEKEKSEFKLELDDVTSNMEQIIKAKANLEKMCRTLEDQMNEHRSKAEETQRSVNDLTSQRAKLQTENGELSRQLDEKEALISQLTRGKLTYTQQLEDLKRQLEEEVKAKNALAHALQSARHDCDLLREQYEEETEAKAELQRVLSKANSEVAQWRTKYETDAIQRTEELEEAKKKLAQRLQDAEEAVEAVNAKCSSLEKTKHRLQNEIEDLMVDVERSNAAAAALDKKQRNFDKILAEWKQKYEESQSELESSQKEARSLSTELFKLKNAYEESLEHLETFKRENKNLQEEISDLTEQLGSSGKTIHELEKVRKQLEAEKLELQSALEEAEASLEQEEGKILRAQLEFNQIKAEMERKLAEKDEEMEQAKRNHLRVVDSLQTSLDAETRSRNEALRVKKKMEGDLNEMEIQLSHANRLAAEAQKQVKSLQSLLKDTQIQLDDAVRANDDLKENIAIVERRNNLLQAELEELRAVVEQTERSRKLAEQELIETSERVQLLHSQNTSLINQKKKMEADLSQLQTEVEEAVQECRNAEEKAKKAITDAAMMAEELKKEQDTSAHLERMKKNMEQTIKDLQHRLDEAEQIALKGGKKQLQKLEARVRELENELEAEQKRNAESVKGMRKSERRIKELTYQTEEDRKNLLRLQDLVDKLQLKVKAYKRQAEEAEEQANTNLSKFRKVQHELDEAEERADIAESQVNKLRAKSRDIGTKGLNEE
Sequence of UniProt P48039 (whole entry, looked up): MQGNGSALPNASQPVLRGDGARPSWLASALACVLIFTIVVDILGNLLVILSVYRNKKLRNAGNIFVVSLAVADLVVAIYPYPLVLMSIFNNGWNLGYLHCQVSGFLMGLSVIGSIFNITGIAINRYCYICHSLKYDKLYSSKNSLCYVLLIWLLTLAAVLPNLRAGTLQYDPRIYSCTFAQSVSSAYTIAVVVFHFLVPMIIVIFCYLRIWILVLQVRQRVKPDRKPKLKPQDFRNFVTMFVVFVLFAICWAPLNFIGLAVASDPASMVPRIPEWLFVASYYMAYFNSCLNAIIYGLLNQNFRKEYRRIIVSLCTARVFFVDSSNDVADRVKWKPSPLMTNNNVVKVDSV
Sequence of UniProt P27338 (whole entry, looked up): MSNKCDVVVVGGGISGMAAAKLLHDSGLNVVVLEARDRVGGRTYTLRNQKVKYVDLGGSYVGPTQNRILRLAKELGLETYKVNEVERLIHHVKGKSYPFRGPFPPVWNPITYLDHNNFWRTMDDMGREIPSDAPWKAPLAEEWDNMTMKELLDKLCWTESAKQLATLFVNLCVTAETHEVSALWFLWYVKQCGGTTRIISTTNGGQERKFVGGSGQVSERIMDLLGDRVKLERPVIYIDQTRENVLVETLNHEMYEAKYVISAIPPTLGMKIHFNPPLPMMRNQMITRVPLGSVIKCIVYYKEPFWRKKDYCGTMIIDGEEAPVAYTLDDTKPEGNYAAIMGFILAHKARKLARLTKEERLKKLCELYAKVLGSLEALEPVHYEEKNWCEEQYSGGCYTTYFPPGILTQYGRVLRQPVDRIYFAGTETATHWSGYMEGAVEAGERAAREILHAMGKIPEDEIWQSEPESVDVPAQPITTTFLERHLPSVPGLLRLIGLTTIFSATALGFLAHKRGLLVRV
Sequence of UniProt Q9UGM1 (whole entry, looked up): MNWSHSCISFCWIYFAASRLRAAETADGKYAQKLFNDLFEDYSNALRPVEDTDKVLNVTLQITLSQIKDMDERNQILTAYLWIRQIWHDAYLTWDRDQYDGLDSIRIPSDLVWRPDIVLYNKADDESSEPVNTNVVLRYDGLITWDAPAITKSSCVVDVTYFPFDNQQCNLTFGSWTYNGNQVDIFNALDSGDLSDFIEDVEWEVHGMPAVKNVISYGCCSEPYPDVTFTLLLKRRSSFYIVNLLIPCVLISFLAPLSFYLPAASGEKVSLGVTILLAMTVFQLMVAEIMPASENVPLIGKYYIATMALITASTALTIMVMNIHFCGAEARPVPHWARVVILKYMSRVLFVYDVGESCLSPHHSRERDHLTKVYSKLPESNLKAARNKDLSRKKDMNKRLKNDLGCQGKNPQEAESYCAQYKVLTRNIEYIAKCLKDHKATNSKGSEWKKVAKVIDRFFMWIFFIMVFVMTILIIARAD
Sequence of UniProt P30939 (whole entry, looked up): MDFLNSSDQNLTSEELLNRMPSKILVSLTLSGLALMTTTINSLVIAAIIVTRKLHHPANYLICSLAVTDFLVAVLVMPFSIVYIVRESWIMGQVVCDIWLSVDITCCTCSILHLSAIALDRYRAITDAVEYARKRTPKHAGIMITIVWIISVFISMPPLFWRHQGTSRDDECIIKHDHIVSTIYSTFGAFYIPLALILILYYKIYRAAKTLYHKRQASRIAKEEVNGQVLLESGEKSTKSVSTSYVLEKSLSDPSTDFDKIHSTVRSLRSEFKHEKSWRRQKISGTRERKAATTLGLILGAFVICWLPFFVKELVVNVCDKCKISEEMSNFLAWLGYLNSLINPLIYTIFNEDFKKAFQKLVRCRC
Sequence of UniProt Q8IVW4 (whole entry, looked up): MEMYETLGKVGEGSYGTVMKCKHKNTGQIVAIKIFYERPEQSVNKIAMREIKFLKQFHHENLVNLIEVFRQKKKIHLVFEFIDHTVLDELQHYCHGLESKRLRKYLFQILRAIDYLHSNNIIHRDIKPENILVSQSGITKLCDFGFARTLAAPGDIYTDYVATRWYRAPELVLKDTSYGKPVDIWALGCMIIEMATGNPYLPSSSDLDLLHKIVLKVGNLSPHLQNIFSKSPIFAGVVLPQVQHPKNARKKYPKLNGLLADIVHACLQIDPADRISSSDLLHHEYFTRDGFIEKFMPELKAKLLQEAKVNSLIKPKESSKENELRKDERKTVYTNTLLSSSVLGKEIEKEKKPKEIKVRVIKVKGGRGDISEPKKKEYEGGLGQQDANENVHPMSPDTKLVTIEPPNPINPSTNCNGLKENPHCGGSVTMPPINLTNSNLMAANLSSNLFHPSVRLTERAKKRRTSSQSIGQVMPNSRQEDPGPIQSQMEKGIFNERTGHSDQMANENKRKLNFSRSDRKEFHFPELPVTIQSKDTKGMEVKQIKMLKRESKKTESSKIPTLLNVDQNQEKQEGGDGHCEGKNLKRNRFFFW

| SMILES | target | assay | conditions | endpoint | result |
| --- | --- | --- | --- | --- | --- |
| Nc1ncc(-c2nc(N3CCOCC3)nc(N3CCOCC3)n2)c(C(F)F)n1 | CDKL3 (Homo sapiens, UniProt Q8IVW4) | binding, competition with immobilised ligand | 10 µM | remaining binding | 74% |
| CC(C)[C@H](NC(=O)[C@@H](N)Cc1ccc(O)cc1)C(=O)N[C@@H](Cc1ccc(O)cc1)C(=O)N[C@@H](CCC(N)=O)C(=O)N[C@@H](Cc1c[nH]cn1)C(=O)N1CCC[C@H]1C(=O)N[C@@H](Cc1c[nH]cn1)C(=O)N[C@H](C(=O)N[C@@H](Cc1ccc(O)cc1)C(=O)O)[C@@H](C)O | HLA class I histocompatibility antigen, A alpha chain | cell-free assay |  | IC50 | 0.107 µM |
| COC(=O)c1cc2[nH]c(=S)n(Cc3cccnc3)c(=O)c2cc1Cl | 4'-phosphopantetheinyl transferase PptT | enzyme activity, inhibitor, FP |  | IC50 | 2.9 µM |
| O=C(O)C(F)(F)C(F)(F)C(F)(F)C(F)(F)C(F)(F)C(F)(F)F | FABP4 | ligand displacement, fluorescence |  | Ki | 4.46 µM |
| Cc1nn(C)cc1-c1nc2c(N3CCN(Cc4ccc(Cl)cc4)CC3)c(Cl)cnc2[nH]1 | RIPK1 (Homo sapiens, UniProt Q13546) | binding, competition with immobilised ligand | 1 µM | remaining binding | 78% |
| C=C(C)[C@H](CC=C(C)C)Cc1c(O)cc(OC)c2c1O[C@H](c1ccc(O)cc1O)CC2=O | MAOB (Homo sapiens, UniProt P27338) | enzyme activity, inhibitor |  | Ki | 12.3 µM |
| C[C@]12CC[C@H]3[C@@H](CCC4=CC(=O)CC[C@@]43C)[C@@H]1CC[C@@H]2C(=O)CO | NR3C2 (Homo sapiens, UniProt P08235) | reporter gene, agonist, luciferase |  | EC50 | 0.0003 µM |
| Cc1ccc2cc(N3CCC4(O)C(=O)c5cc(C)c(C)cc5N=C34)ccc2n1 (centres unmarked) | Myosin-7 (MYH7, Bos taurus, UniProt Q9BE39) | ATPase activity, inhibitor |  | Ki | > 50 µM |
| COc1cc2c(cc1OC)CN(CCc1ccc(NC(=O)c3cccc4c(=O)c5cccc(OC)c5[nH]c34)cc1)CC2 | CHRM1 (Homo sapiens, UniProt P11229) | cell-free assay |  | Ki | 0.413 µM |
| COc1ncccc1-c1cnn2ccc(N3CCN(C(=O)OC(C)C)CC3)nc12 | DSTYK (Homo sapiens, UniProt Q6XUX3) | binding, competition with immobilised ligand | 1 µM | remaining binding | 99% |
| CC(c1cccnc1)n1c(=S)[nH]c2ccc(Cl)cc2c1=O (centres unmarked) | 4'-phosphopantetheinyl transferase PptT | enzyme activity, inhibitor, FP |  | IC50 | 0.71 µM |
| O=C(O)C(F)(F)C(F)(F)C(F)(F)F | FABP4 | ligand displacement, fluorescence |  | Ki | 1180 µM |
| CC[C@H](C)[C@H](NC(=O)[C@@H](N)Cc1c[nH]cn1)C(=O)N[C@@H](Cc1ccccc1)C(=O)N[C@@H](CO)C(=O)N[C@@H](CCCNC(=N)N)C(=O)N1CCC[C@H]1C(=O)N[C@@H](CCSC)C(=O)N[C@H](C(=O)N[C@@H](Cc1ccccc1)C(=O)O)[C@@H](C)O | HLA class I histocompatibility antigen, A alpha chain | cell-free assay |  | IC50 | 2.87 µM |
| [2H]c1c([2H])c([C@]2([2H])CCCN2C(=O)C(C)(C)Oc2ccc3cn[nH]c3c2)c([2H])c([2H])c1C([2H])([2H])[2H] | TAOK3 (Homo sapiens, UniProt Q9H2K8) | binding, competition with immobilised ligand | 1 µM | remaining binding | 100% |
| CSCC[C@H](NC(=O)[C@H](CO)NC(=O)[C@H](CC(C)C)NC(=O)[C@H](CO)NC(=O)[C@H](Cc1c[nH]cn1)NC(=O)CNC(=O)[C@H](Cc1ccc(O)cc1)NC(=O)[C@H](CC(C)C)NC(=O)[C@@H](N)CCCNC(=N)N)C(=O)O | HLA class I histocompatibility antigen, A alpha chain | cell-free assay |  | IC50 | 0.014 µM |
| Ic1cccc(-c2noc(CC3CN4CCC3CC4)n2)c1 (centres unmarked) | CHRNA9 (Homo sapiens, UniProt Q9UGM1) | ion current, agonist, two-electrode voltage clamp | oocytes | EC50 | 0.21 µM |
| COc1ccc2cccc(C(CO)CNC(=O)CF)c2c1 (centres unmarked) | MTNR1A (Homo sapiens, UniProt P48039) | cAMP, agonist, TR-FRET |  | EC50 | 0.0178 µM |
| CSCC[C@H](NC(=O)[C@@H](N)CCCNC(=N)N)C(=O)N[C@@H](Cc1ccccc1)C(=O)N[C@@H](CCCCN)C(=O)N[C@@H](Cc1c[nH]cn1)C(=O)N1CCC[C@H]1C(=O)N[C@@H](CC(C)C)C(=O)N[C@@H](CCC(N)=O)C(=O)N[C@@H](Cc1ccccc1)C(=O)O | HLA class I histocompatibility antigen, A alpha chain | cell-free assay |  | IC50 | 0.021 µM |
| O=c1c(O)c(-c2ccc(O)c(O)c2)oc2cc(O)cc(O)c12 | APP (Homo sapiens, UniProt P05067) | amyloid aggregation, inhibitor, fluorescence |  | EC50 | 8 µM |
| CC(N)Cc1c[nH]c2ccc(OCc3cccs3)cc12 (centres unmarked) | HTR1F (Homo sapiens, UniProt P30939) | G protein activation, agonist, BRET |  | EC50 | 0.895 µM |
| CC[C@H](C)[C@H](NC(=O)[C@@H]1CCCN1C(=O)[C@H](Cc1c[nH]cn1)NC(=O)[C@H](CCCCN)NC(=O)[C@H](Cc1ccccc1)NC(=O)[C@H](CC(C)C)NC(=O)[C@@H](N)CCCCN)C(=O)N[C@@H](CCC(N)=O)C(=O)N[C@@H](CC(C)C)C(=O)O | HLA class I histocompatibility antigen, A alpha chain | cell-free assay |  | IC50 | 0.043 µM |
| CSCC[C@H](NC(=O)[C@H](CCCNC(=N)N)NC(=O)[C@@H](N)C(C)C)C(=O)N[C@@H](CCCNC(=N)N)C(=O)N[C@@H](CC(C)C)C(=O)N[C@@H](CCCNC(=N)N)C(=O)N[C@@H](CCCCN)C(=O)N[C@@H](CC(C)C)C(=O)N[C@@H](CCCNC(=N)N)C(=O)N[C@@H](C)C(=O)N[C@@H](CO)C(=O)N[C@@H](Cc1ccccc1)C(=O)N[C@@H](Cc1ccccc1)C(=O)N[C@@H](CCCCN)C(=O)N[C@@H](CCC(N)=O)C(=O)N1CCC[C@H]1C(=O)N[C@@H](CCC(=O)O)C(=O)O | TEAD4 (Homo sapiens, UniProt Q15561) | binding, SPR | pH 7.4 | Kd | 8.55 µM |
| CCC(C(=O)Nc1cc(NC2CCNCC2)ccc1C)n1cc(Cl)cc2nc(SCc3ccc(F)cc3)nc1-2 (centres unmarked) | Caspase-3 (CASP3, Homo sapiens, UniProt P42574) | enzyme activity, inhibitor |  | IC50 | > 100 µM |
| CC[C@H](C)[C@H](NC(=O)[C@H](C)NC(=O)[C@H](C)NC(=O)[C@H](CCC(=O)O)NC(=O)[C@H](CCCNC(=N)N)NC(=O)[C@H](C)NC(=O)[C@H](CC(C)C)NC(=O)[C@H](CC(C)C)NC(=O)[C@H](CCCNC(=N)N)NC(=O)[C@H](CCCNC(=N)N)NC(=O)[C@H](CC(C)C)NC(=O)[C@H](Cc1c[nH]cn1)NC(=O)[C@H](CCC(=O)O)NC(=O)[C@@H]1CCCN1C(=O)[C@H](CO)NC(=O)[C@H](CC(C)C)NC(=O)[C@H](Cc1ccccc1)NC(=O)[C@H](Cc1c[nH]c2ccccc12)NC(=O)[C@H](CO)NC(=O)CN)C(=O)N1CCC[C@H]1C(=O)N1CCC[C@H]1C(=O)N1CCC[C@H]1C(=O)N1CCC[C@H]1C(=O)N[C@H](C(=O)N[C@H](C(=O)N1CCC[C@H]1C(=O)N1CCC[C@H]1C(=O)O)C(C)C)C(C)C | GHSR (Homo sapiens, UniProt Q92847) | calcium signal, agonist, fluorescence |  | EC50 | 0.1 µM and < 0.1 µM |
| CC[C@H](C)[C@H](NC(=O)[C@@H]1CCCN1C(=O)[C@H](Cc1c[nH]cn1)NC(=O)[C@H](CCCCN)NC(=O)[C@H](Cc1ccc(O)cc1)NC(=O)[C@@H](NC(=O)[C@@H](N)Cc1ccc(O)cc1)[C@@H](C)O)C(=O)N[C@@H](Cc1ccc(O)cc1)C(=O)N[C@@H](CC(C)C)C(=O)O | HLA class I histocompatibility antigen, A alpha chain | cell-free assay |  | IC50 | 0.151 µM |
| O=C(O)C(F)(F)C(F)(F)C(F)(F)C(F)(F)C(F)(F)C(F)(F)C(F)(F)F | AKR1C2 (Homo sapiens, UniProt P52895) | enzyme activity, inhibitor, HPLC |  | Ki | 0.543 µM |

Excerpt of the above:
| SMILES | target | assay | conditions | endpoint | result |
| --- | --- | --- | --- | --- | --- |
| Cc1ccc2cc(N3CCC4(O)C(=O)c5cc(C)c(C)cc5N=C34)ccc2n1 (centres unmarked) | Myosin-7 (MYH7, Bos taurus, UniProt Q9BE39) | ATPase activity, inhibitor |  | Ki | > 50 µM |
| COc1cc2c(cc1OC)CN(CCc1ccc(NC(=O)c3cccc4c(=O)c5cccc(OC)c5[nH]c34)cc1)CC2 | CHRM1 (Homo sapiens, UniProt P11229) | cell-free assay |  | Ki | 0.413 µM |
| COc1ncccc1-c1cnn2ccc(N3CCN(C(=O)OC(C)C)CC3)nc12 | DSTYK (Homo sapiens, UniProt Q6XUX3) | binding, competition with immobilised ligand | 1 µM | remaining binding | 99% |
